Results from different studies.
Lines come from different studies, so protocols differ. ± gives the spread as reported.

C#Cc1cn([C@@H]2O[C@H](CO)C[C@H]2O)c2ncnc(N)c12  EC50 (Trypanosoma congolense; parasite growth, resazurin; 6C3 diminazene-resistant; 48 h plus 24 h resazurin): 0.008 ± 0.002 µM
O=C1/C(=N\NC(=S)NN=Cc2cccs2)c2ccccc2N1Cc1ccccc1  EC50 (herpes simplex virus 2; viral cytopathogenicity; HEL, G): > 20 µM
COc1ccc(NC(=O)N2CCCN3CCC(c4ccc(C#Cc5ccccc5)cc4)C3C2)cc1 (stereo not shown)  EC50 (Toxoplasma gondii; parasite growth, luciferase reporter; HFF, RH PheRS L497I mutant; 72 h): 3.98 µM
[N-]=[N+]=N[C@]1(CO)O[C@@H](n2ccc(N)nc2=O)C(F)(F)[C@@H]1O  EC50 (human respiratory syncytial virus; viral replication; NCI-H358): 0.21 ± 0.04 µM
Nc1ncnc2c1c(Br)cn2[C@@H]1O[C@H](CO)[C@@H](O)[C@H]1O  EC50 (Trypanosoma congolense; parasite growth, resazurin; 72 h): 0.79 µM
CCCCCCC(CC=CCCCCCCCC(=O)OCCOCn1cnc2c(=O)[nH]c(N)nc21)OC(=O)CCCCC1SCC2NC(=O)NC21 (stereo not shown)  EC50 (herpes simplex virus 2; viral replication, plaque reduction; HFF, MS): 0.27 µM
COc1ccccc1-c1n[nH]c2nc(N[C@H]3CC[C@H](NS(=O)(=O)CC(C)C)CC3)ncc12  EC50 (Leishmania donovani; mouse peritoneal macrophages, resistant clone intramacrophage amastigotes): 0.251 µM
CCCCCCCCCC(=O)OCC1OC(n2cc(C)c(=O)[nH]c2=O)CC1N(C)C (stereo not shown)  EC50 (coxsackievirus B4; viral replication; Vero): > 0.23 µM
Nc1ncnc2c1ccn2[C@@H]1O[C@H](CO)C[C@H]1O  EC50 (Trypanosoma congolense; parasite growth, resazurin; 6C3 diminazene-resistant; 48 h plus 24 h resazurin): 0.019 ± 0.002 µM
COc1cccc(CNC(=O)c2cc(C3CC3)nn2C)c1OC  EC50 (human rhinovirus; viral replication; H1-HeLa, HRV-16): < 1 µM
O=C(Cc1csc2nc(-c3ccc(Br)cc3)cn12)NN=C1CCCC1  EC50 (Sindbis virus; viral cytopathicity, microscopy; Vero): > 100 mg/L
Nc1ncnc2c1ccn2[C@H]1C[C@H](O)[C@@H](CO)O1  EC50 (Trypanosoma congolense; parasite growth, resazurin; 6C3 diminazene-resistant; 48 h plus 24 h resazurin): 11 ± 2.3 µM
COc1ccc(S(=O)(=O)NCc2c[nH]nc2-c2cccs2)cc1  EC50 (Plasmodium falciparum): 15.6 µM
CC(C)Oc1ncnc2c1c(Cl)cn2[C@@H]1O[C@H](CO)[C@@H](O)[C@H]1O  EC50 (Trypanosoma congolense; parasite growth, resazurin; 6C3 diminazene-resistant; 48 h plus 24 h resazurin): 3.23 ± 0.36 µM
CC[C@@H]1NC(=O)[C@H]([C@H](O)[C@H](C)Cc2nc3ccc(C(=O)OC)cc3[nH]2)N(C)C(=O)[C@H](C(C)C)N(C)C(=O)[C@H](CC(C)C)N(C)C(=O)[C@H](CC(C)C)N(C)C(=O)[C@@H](C)NC(=O)[C@H](C)NC(=O)[C@H](CC(C)C)N(C)C(=O)[C@H](C(C)C)NC(=O)[C@H](CC(C)C)N(C)C(=O)CN(C)C1=O  EC50 (Human coronavirus NL63; viral replication, inhibitor, qPCR; Caco-2; 48 h): 1.1 µM
O=C(Cc1ccc(Cl)c(Cl)c1)N(Cc1ccccc1)[C@@H]1CCCC[C@H]1N1CCCC1  EC50 (Trypanosoma brucei; parasite growth): 2.4 µM
Nc1ncnc2c1c(F)cn2[C@@H]1O[C@H](CO)[C@@H](O)[C@H]1O  EC50 (Trypanosoma congolense; parasite growth, resazurin; 6C3 diminazene-resistant; 48 h plus 24 h resazurin): 0.78 ± 0.1 µM
N#C[C@@]1(c2ccc3c(N)ncnn23)O[C@H](CO)[C@@H](O)[C@H]1O  EC50 (human respiratory syncytial virus; viral replication; HEp-2, A2): 0.75 µM
CC[C@@H]1NC(=O)[C@H]([C@H](O)[C@H](C)C/C=C/CN(C)C)N(C)C(=O)[C@H](C(C)C)N(C)C(=O)[C@H](CC(C)C)N(C)C(=O)[C@H](CC(C)C)N(C)C(=O)[C@@H](C)NC(=O)[C@H](C)NC(=O)[C@H](CC(C)C)N(C)C(=O)[C@H](C(C)C)NC(=O)[C@H](CC(C)C)N(C)C(=O)CN(C)C1=O  EC50 (Human coronavirus NL63; viral replication, inhibitor, qPCR; Caco-2; 48 h): 7.9 µM
C=C1C(=O)O[C@H]2C[C@H](C)C(/C=C/C(C)=O)=CC[C@H]12  EC50 (Sindbis virus; viral replication; Vero): > 20 µM
Nc1ncnc2c1c(C(F)(F)F)cn2[C@@H]1O[C@H](CO)[C@@H](O)[C@H]1O  EC50 (Trypanosoma congolense; parasite growth, resazurin; 6C3 diminazene-resistant; 48 h plus 24 h resazurin): 0.89 ± 0.17 µM
Cc1cn(C2CC(N(C)C)C(CO)O2)c(=O)[nH]c1=O (stereo not shown)  EC50 (coxsackievirus B4; viral replication; Vero): > 0.37 µM

Some of these lines once more:
COc1cccc(CNC(=O)c2cc(C3CC3)nn2C)c1OC  EC50 (human rhinovirus; viral replication; H1-HeLa, HRV-16): < 1 µM
